Published values gathered from unrelated publications.
Numbered parts are unrelated; each lists some results of a single study.

Block 1
Target: Histone acetyltransferase KAT6A, both winged helices, GST fusion (KAT6A, Homo sapiens, UniProt Q92794, residues 1-181)
Technique: protein binding microarray
Form: double-stranded DNA, one strand shown
Matrix: in vitro
Concentration: not given
Setting: 8-mer, flanks averaged, mean of 2 arrays, mostly near background
Baseline: not given
Direction: higher = stronger binding
Residues (chain): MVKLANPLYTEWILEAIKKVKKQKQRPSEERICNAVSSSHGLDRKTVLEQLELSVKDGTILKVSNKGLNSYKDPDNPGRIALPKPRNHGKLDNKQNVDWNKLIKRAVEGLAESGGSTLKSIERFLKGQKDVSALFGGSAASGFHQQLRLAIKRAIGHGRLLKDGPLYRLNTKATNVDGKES
Oligonucleotide	E-score
CTAGGGGA	-0.253
AGGGATAG	-0.0988
AGGTGTCA	-0.0685
AGGCTCTC	-0.0151
GAAATGAA	-0.0313
CGCAGAAA	0.183
GGAGATGA	-0.0599
TATCAACA	-0.125
CGTGCACC	-0.0597
CATTTTCC	-0.0121
CGCCCAAC	-0.0685
GGGGGAAC	-0.0866
ACTCCATA	-0.158
CACCCTTA	-0.208
CACTAACG	0.117
AATCGCCT	-0.196

Block 2
Target: PABPC1L2, full length, GST fusion (mouse, UniProt A0ABA7IW68)
Technique: RNAcompete
Form: RNA
Matrix: in vitro
Concentration: 20 nM
Setting: 7-mer, probes averaged, single round
Baseline: mean of 7-mers
Direction: higher = stronger binding
Residues (chain): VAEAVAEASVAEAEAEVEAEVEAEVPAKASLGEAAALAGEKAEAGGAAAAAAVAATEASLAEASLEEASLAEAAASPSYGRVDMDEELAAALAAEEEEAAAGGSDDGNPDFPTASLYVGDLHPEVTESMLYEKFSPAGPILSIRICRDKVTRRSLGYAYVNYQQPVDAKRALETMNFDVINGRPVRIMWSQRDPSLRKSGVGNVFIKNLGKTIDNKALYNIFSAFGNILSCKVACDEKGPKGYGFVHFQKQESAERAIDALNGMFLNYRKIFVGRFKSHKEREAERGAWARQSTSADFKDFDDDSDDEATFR
Oligonucleotide	7-mer Z-score
UAUGCGA	0.0913
GGAAUUG	-0.0464
CGGGUAA	0.392
ACCUUGU	-0.26
UAGAUUU	0.0134
UUGACAC	-0.141
GCACACC	-0.175
CCAAGUG	-0.0935
GUAGCAU	0.0442
GUGUCAA	-0.119
UUUACAU	-0.079
UUAGGUA	-0.0554
UAUGUAG	-0.0554
AGUGGAA	0.109
UAAAACC	0.914
UCCCCUU	-0.463
ACCACUC	-0.235
UGGCAUU	-0.104
ACCUCAC	-0.155
UGAUUAA	0.0696

Block 3
Target: RING finger protein unkempt homolog, zinc fingers 1-6, GST-SBP tag (UNK, Homo sapiens, UniProt Q9C0B0, residues 30-357)
Technique: RNA Bind-n-Seq
Form: RNA
Matrix: in vitro
Concentration: not given
Setting: RNA with constant flanks, ends assumed
Baseline: input RNA pool
Direction: higher = stronger binding
Constant ends, left off below: GGGAGUUCUACAGUCCGACGAUC … CAACAGAGGAUUGAGCAUCA
Target sequence (chain): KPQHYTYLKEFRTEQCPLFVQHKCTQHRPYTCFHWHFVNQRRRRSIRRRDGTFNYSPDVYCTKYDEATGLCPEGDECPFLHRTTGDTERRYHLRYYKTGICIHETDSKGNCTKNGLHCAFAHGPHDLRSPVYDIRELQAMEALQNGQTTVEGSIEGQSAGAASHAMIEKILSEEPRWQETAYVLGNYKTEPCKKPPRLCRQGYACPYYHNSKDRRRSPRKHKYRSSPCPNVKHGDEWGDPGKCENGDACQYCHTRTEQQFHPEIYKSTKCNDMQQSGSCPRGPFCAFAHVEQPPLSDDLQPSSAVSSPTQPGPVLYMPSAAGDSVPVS
Oligonucleotide	bound/input enrichment
UCACACUCACAUUGUGGCAAACAGUCAACAUGGAAGUAGACCGGCUCUGCUGAUUUGAAAUUCCGAUUUUUUUUUAAUUAUGUACUGGGGACAGGUUUUUGUCGCUUUACAUUGCUUCCU	0.237 ratio
AAGCUUGGUGGGACAAUAGAUGACUGUGAGCUGGUGGAAGGCCUCGUUCUCACACAGAAAGCCGCAAAUUCUGGCAUAACAAGAGUUGAAAAGGCUAAGAUUGGGCUUAUUCAGUUUUGC	0.204 ratio
UCUAAAAGGAAAAAAAAGUAGUGUAUUUUAUAUUUCCAUAUGCUAAUGACAUGUCUGUAAUCCGUCUUCAGUGUUCCAUAAGAAGAGAGUGAUGGUACAAGUAUCCCUAAGUAUCACUUU	0.609 ratio
AUUGCUAUGGGAUUUCCUGCAGAAAGACUUGAAGGCGUAUACAGGAACAAUAUUGAUGAUGCCGUAAGGUUUUUGGAUUCAAAGCAUAAAAACCAUUACAAGAUAUACAAUCUUUGUGCU	0.437 ratio
UGUAGAGCUAAUGUUUACCUUCUUCCGACCGGGAAAAUAGUUUAUUUCAUUGCAUCAGCCGCCGUACUAUUUAAUUAUGAGGAGAGAACUCAGCGACACUACCUGGGCCAUACAGACUGU	3.46 ratio
GGUCCUGGCCCCUUACAAGAGAGAUCUCUCUUUGAGAAAAAGAGAGGCGCUCCUCCAAGCCGCAAUAUUGAAGACUUCCAUGGACUCUUACCGAAGGGUUAUCCCCAUCUGUGCUCUAUA	0.0943 ratio
AUGUCAGAUCUCUUCAACAAACUUGUCAUGAGGCGCAAAGGUAUCUCUGGAAAGGGACCCCGCACUGGAACCAGUGAGGGACCUGGAGGAGCCUUCUCUCGAAUGUCAGACUCCAUCCCA	0.0708 ratio
CCAAUUGACAACGGUUCAAAAAUCACCAACUACCUUUUAGAGUGGGAUGAGGGAAAAAGAAACCGUGGUUUCAGACAGUGCUUCUUCGGGAGCCAGAAGCACUGCAAGUUGACAAAGCUU	0.249 ratio
CCAGUUCUCAUUUCAGCUAUGAAGAUUUUUGUAACAACUAAAAACUCAAAAAACCAAGGCACCGAGGAAGCUUUAAAAAAUCGCAAUUUUACUGUAGAAAAAAUGAGUGCUGAAAUUAAU	0.197 ratio
ACCAGAAGAACCCUCCGGAUGUGAGCAGUCCUGGACAGAGCACGUGAGGAGGGGCCCUGGGCCCGCAGUUUGCUGGAUGGGAUUGGCUCCAAGAUGGGAGAUGAAGUCUAAAGGGUUUAU	0.186 ratio
UUCCGCCACAUGAGAAACCAUGCUUAUGAGCCGCUCGCCAGCUUCCUGGACUUCAUAACUUACCGCUACAUGAUUGACAACGUGAUCCUGCUAAUCACAGGCACACUGCACCAGCGUUCA	0.14 ratio

Block 4
Target: Ras GTPase-activating protein-binding protein 1, RRM domain (G3BP1, Homo sapiens, UniProt Q13283)
Chain of UniProt Q13283 (whole entry, looked up): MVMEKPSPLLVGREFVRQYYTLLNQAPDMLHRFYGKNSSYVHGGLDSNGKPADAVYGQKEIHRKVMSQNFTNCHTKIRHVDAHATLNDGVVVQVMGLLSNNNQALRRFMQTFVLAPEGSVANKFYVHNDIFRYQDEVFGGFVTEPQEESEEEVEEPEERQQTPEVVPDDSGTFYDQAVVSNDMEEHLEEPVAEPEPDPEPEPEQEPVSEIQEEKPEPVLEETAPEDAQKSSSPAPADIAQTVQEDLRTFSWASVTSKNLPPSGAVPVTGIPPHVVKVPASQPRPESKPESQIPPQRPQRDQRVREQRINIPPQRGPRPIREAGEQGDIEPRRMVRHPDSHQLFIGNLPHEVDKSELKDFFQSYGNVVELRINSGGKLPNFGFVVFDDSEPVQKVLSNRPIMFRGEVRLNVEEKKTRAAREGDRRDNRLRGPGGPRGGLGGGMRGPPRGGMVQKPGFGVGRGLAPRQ
Technique: RNA Bind-n-Seq
Form: RNA
Matrix: in vitro
Concentration: 1 µM
Setting: whole 134-nt RNA, ends assumed
With: 150 mM KCl
Baseline: input library
Direction: higher = stronger binding
Constant ends, left off below: GGGAGUUCUACAGUCCGACGAUC … UGGAAUUCUCGGGUGUCAAGG
Oligonucleotide	log2 enrichment
UGUGCUACACAUCGUAUGUACCGAAUCGGGGUUUUUUUGGGGUUUUUGGGGAAAAAAAGGGGAAAGUAUUAUGUUACGCCGUUCGGAUCU	1.13
GCAGGAAGUAAAAACAAAUGGAAAUGCUUCGGAUAGUGGCAGGGGUGGGGGUUGCAAAGGAAAGGGUGGGAUGGGAGUGGGUAAAGAGUU	1.26
UAUGCCACGCCCUUUGAGGACUCGAAGAUCAUGGUCUCUGACUUUGGACUCUCCAAAAUCCAGGCUGGGAACAUGCUAGGCACCGCCUGU	-0.0469
AAUGUGUCCUCCCUGUCCAAAUUGGGAAUGACUUAAUGUCAAUUUGUUUGUUGGUUGUUUUAAUAAUACUUCCUUAUGUAGCCAUUAAGA	-0.191
CAAGUCCUGUGCUACACAUCGUAUGUACCGAAUCGGAAAAAAAGGUGGUUUUUGGAAAGUAUUAUGUUACGCCGUUCGGAUCUGCACUUC	-0.175
UGACCCUGGUGGCAUGCGGGGAGGAAGAGGUGGCCUCAUGGAUCGUGGUGGUCCCGGUGGAAUGUUCAGAGGUGGCCGUGGUGGAGACAG	0.635
UCCUGUGCUACACAUCGUAUGUACCGAAUCGGGGCCCCCCGGGGCCCCCCGGCCCCCCGGAAAGUAUUAUGUUACGCCGUUCGGAUCUGC	-0.367
AAGUCCUGUGCUACACAUCGUAUGUACCGAAUCGGGGAAAAAGGGGAGGGGAGGGGAAAGUAUUAUGUUACGCCGUUCGGAUCUGCACUU	0.869
CAAGUCCUGUGCUACACAUCGUAUGUACCGAAUCGGGGCCCGGGCCCGGCCCGGGGAAAGUAUUAUGUUACGCCGUUCGGAUCUGCACUU	-0.982
AGUCCUGUGCUACACAUCGUAUGUACCGAAUCGGGGAGGGGAAAGGGGUUUUUGGGGAAAGUAUUAUGUUACGCCGUUCGGAUCUGCACU	1.18

Repeated from above (block 1):
Oligonucleotide	E-score
CGCAGAAA	0.183
GGAGATGA	-0.0599
TATCAACA	-0.125
CGTGCACC	-0.0597
CATTTTCC	-0.0121
